Experimental data pooled from the literature.
Each line is one published result; not all experiments were run side by side.

For `Cc1cc(Nc2nc(C[C@@]3(C(=O)O)CCN(Cc4cccc(Cl)c4F)[C@H](C)C3)cc(C)c2F)[nH]n1`, the IC50 was 0.107 µM (HCC1395; cell growth or viability, ATP luminescence; 5 days).
`Cc1sc2c(c1C)C(c1ccc(-c3cccc(NC(=O)c4cnn5cccnc45)c3)cc1)=N[C@@H](CC(N)=O)c1nnc(C)n1-2` gave an IC50 of 0.0083 µM (Kasumi 1; cell growth or viability, ATP luminescence; 72 h).
The IC50 of `CN(C)C(=O)[C@@H](NC(=O)c1cc(-c2ccnn2C)ccc1-c1ccc(C(F)(F)F)cc1)c1cccc(C(F)(F)F)c1` is reported as 0.4 µM (NKL effector, Ba/F3-ULBP5 target; NKG2D-mediated cell killing, inhibitor).
`Cc1ccccc1/C=C/C(=O)N[C@@H]1C(=O)N[C@@H](Cc2ccccc2)C(=O)N[C@H](CC(C)C)C(=O)N[C@@H](C(C)C)C(=O)N[C@@H](C)C(=O)N[C@H](CCC(N)=O)C(=O)NCC(=O)N2CCC[C@H]2C(=O)N[C@@H](CCCNC(=N)N)C(=O)N[C@H](Cc2ccccc2)C(=O)O[C@H]1C` has an IC50 of over 20 µM (SNU-638).
`O=C(O)c1ccc([S][Au][PH](c2ccccc2)(c2ccccc2)[c-]2cccc2)cc1.[Fe+2].c1cc[cH-]c1` has an IC50 of 4.11 µM (HEK-293T; cell growth or viability, XTT; 24 h).
`Cc1ccc2c(Cl)cc(Cl)c([O-])c2n1.Cc1ccc2c(Cl)cc(Cl)c([O-])c2n1.[Co+2].c1cnc2c(c1)c1nccnc1c1cccnc12` has an IC50 of 2.35 µM (BEL-7404; cell growth or viability, MTT; 48 h).
`CC(C)C12OC1C1OC13C1(C)CCC4=C(COC4=O)C1CC1OC13C2OC(=O)CCCOC1OC(CO)C(O)C(O)C1O` (centres unmarked) gave an IC50 of 5.9 µM (SK-HEP1; cell growth or viability, XTT; 47 h).
With `Cc1cc(Oc2nc(N3CC[C@@H](c4ccncc4)C3)ncc2F)[nH]n1` the IC50 was 58.9 µM (BXPC-3; cell proliferation; pancreas cancer).
With `Cc1ccccc1/C=C/C(=O)N[C@@H](CO)C(=O)N[C@H](C(=O)N[C@H](Cc1ccccc1)C(=O)N[C@@H]1C(=O)N2[C@@H](CC(=O)O)C(=O)Nc3ccccc3[C@@]2(O)[C@@H]1O)[C@@H](C)O` the IC50 was over 20 µM (SNU-638).
For `CC[C@H](C)[C@@H]([C@@H](CC(=O)N1CCC[C@H]1[C@H](OC)[C@@H](C)C(=O)N[C@H](C)[C@@H](O)c1ccccc1)OC)N(C)C(=O)[C@@H](NC(=O)[C@H](C(C)C)N(C)C(=O)OCc1ccc(NC(=O)[C@H](CCCNC(N)=O)NC(=O)[C@@H](NC(=O)CCCc2cn(CC(=O)N[C@@H](CCCCNC(=O)CC[C@H](NC(=O)c3ccc(NCc4cnc5nc(N)[nH]c(=O)c5n4)cc3)C(=O)O)C(=O)NCCCC[C@H]3NC(=O)[C@H](CCCCN)NC(=O)[C@H](CCCNC(N)=O)NC(=O)[C@H](Cc4ccc(O)cc4)NC(=O)[C@@H](NC(=O)[C@H](Cc4ccc5ccccc5c4)NC(=O)[C@H](CCCNC(=N)N)NC(=O)[C@@H](N)CCCNC(=N)N)CSSC[C@@H](C(=O)N[C@@H](CCCNC(=N)N)C(N)=O)NC(=O)[C@H](CCCNC(N)=O)NC(=O)[C@H](CCCNC(=N)N)NC(=O)[C@H](Cc4ccc(O)cc4)NC(=O)[C@@H]4CCCN4C3=O)nn2)C(C)C)cc1)C(C)C`, the IC50 was 4.45 µM (L02; cell growth or viability, CCK-8).
For `C[C@H]1[C@H](OC(=O)CCC(=O)OCCC2CCN(CC(=O)Nc3ccc([N+](=O)[O-])c(C(F)(F)F)c3)CC2)O[C@@H]2O[C@@]3(C)CC[C@H]4[C@H](C)CC[C@@H]1[C@@]24OO3`, the IC50 was 26.1 µM (7702 normal human cells; cell growth, CCK-8; 48 h).
With `CC(C)C12OC1C1OC13C1(C)CCC4=C(COC4=O)C1CC1OC13C2OC(=O)CCC(=O)OC1OC(CO)C(O)C(O)C1O` (centres unmarked) the IC50 was 0.53 µM (MDA-MB-453; cell growth or viability, XTT; 47 h).
For `CCOc1ccc(Br)cc1/C=N/NC(=O)CCl`, the IC50 was 2.1 µM (HT-29; cell growth or viability).
The IC50 of `CC(=O)O[C@@H]1C[C@@H](C)O[C@H]2O[C@@H]3C[C@@H]4CC[C@@H]5[C@H](CC[C@]6(C)[C@@H](C7=CC(=O)OC7)CC[C@]56O)[C@@]4(C)C[C@H]3O[C@]21O` is reported as 9.38 µM (L6; cell growth or viability, resazurin; 72 h).
The IC50 of `CC(C)C[C@H](NC(=O)[C@H](Cc1ccccc1)NC(=O)[C@H](C)NC(=O)[C@@H](CS)NC(=O)CNC(=O)[C@H](N)CO)C(=O)N[C@@H](CO)C(=O)N[C@H](C(=O)N[C@@H](CCCCN)C(=O)N[C@@H](CCCCN)C(=O)N[C@@H](CCC(N)=O)C(=O)N[C@@H](Cc1ccccc1)C(=O)N[C@@H](CCC(=O)O)C(=O)N[C@@H](CCC(=O)O)C(=O)N[C@@H](CC(C)C)C(=O)N[C@H](C(=O)N[C@@H](CC(C)C)C(=O)NCC(=O)N[C@@H](CCC(=O)O)C(=O)N[C@@H](Cc1ccccc1)C(=O)N[C@@H](CC(C)C)C(=O)N[C@H](CCCCN)C(=O)N[C@H](CC(C)C)C(=O)N[C@H](CC(=O)O)C(=O)N[C@@H](CCCNC(=N)N)C(=O)N[C@H](CCCNC(=N)N)C(=O)N[C@@H](CCCNC(=N)N)C(=O)N[C@@H](CCCCN)C(=O)O)[C@@H](C)O)C(C)C` is reported as 70 µM (A549 SMAC knockout; cell death; 24 h).
With `CSc1ccc2c(c1)c(CCN)c(C)n2Cc1ccccc1Cl` the IC50 was 7 µM (BV-2; cell count, high-content imaging; geometric mean).
For `CCOc1ccccc1-n1c(CN2CCNCC2)nc2ccccc2c1=O`, the IC50 was 0.154 µM (CAL-33; cell growth or viability; 72 h).
The IC50 of `CC1CCC2C(C)C(OC(=O)CCC(=O)OC3C(C)OC(n4cc(F)c(=O)[nH]c4=O)C3OC(=O)CCC(=O)OC3OC4OC5(C)CCC6C(C)CCC(C3C)C46OO5)OC3OC4(C)CCC1C32OO4` (centres unmarked) is reported as 4.4 µM (7702 normal human cells; cell growth, CCK-8; 48 h).
`Cc1ccc2c(Br)cc(Br)c([O-])c2n1.Cc1ccc2c(Br)cc(Br)c([O-])c2n1.[Co+2].c1cnc2c(c1)c1nccnc1c1cccnc12` has an IC50 of 4.09 µM (BEL-7404; cell growth or viability, MTT; 48 h).
For `CC(=O)[O][Pt]([NH2])([NH2])([Cl])([Cl])[O]C(=O)C(Cl)Cl`, the IC50 was 0.73 µM (BCPAP; cell growth or viability, MTT; 72 h).
`CC1CCC2C(C)C(OC(=O)CCC(=O)N3CCN(CC(=O)Nc4ccc([N+](=O)[O-])c(C(F)(F)F)c4)CC3)OC3OC4(C)CCC1C32OO4` (centres unmarked) gave an IC50 of 4.19 µM (7702 normal human cells; cell growth, CCK-8; 48 h).
`CSc1ccc2c(c1)c(CCN)c(C)n2Cc1ccc(Cl)cc1` gave an IC50 of 4.54 µM (HMC3; cell growth or viability, imaging).
For `O=C(c1cc(Cc2n[nH]c(=O)c3ccccc23)ccc1F)N1CC(CNC2CC2)C1`, the IC50 was 0.0115 µM (IGROV-1).

Repeated from above:
For `CCOc1ccc(Br)cc1/C=N/NC(=O)CCl`, the IC50 was 2.1 µM (HT-29; cell growth or viability).
The IC50 of `CC(=O)O[C@@H]1C[C@@H](C)O[C@H]2O[C@@H]3C[C@@H]4CC[C@@H]5[C@H](CC[C@]6(C)[C@@H](C7=CC(=O)OC7)CC[C@]56O)[C@@]4(C)C[C@H]3O[C@]21O` is reported as 9.38 µM (L6; cell growth or viability, resazurin; 72 h).
The IC50 of `CC(C)C[C@H](NC(=O)[C@H](Cc1ccccc1)NC(=O)[C@H](C)NC(=O)[C@@H](CS)NC(=O)CNC(=O)[C@H](N)CO)C(=O)N[C@@H](CO)C(=O)N[C@H](C(=O)N[C@@H](CCCCN)C(=O)N[C@@H](CCCCN)C(=O)N[C@@H](CCC(N)=O)C(=O)N[C@@H](Cc1ccccc1)C(=O)N[C@@H](CCC(=O)O)C(=O)N[C@@H](CCC(=O)O)C(=O)N[C@@H](CC(C)C)C(=O)N[C@H](C(=O)N[C@@H](CC(C)C)C(=O)NCC(=O)N[C@@H](CCC(=O)O)C(=O)N[C@@H](Cc1ccccc1)C(=O)N[C@@H](CC(C)C)C(=O)N[C@H](CCCCN)C(=O)N[C@H](CC(C)C)C(=O)N[C@H](CC(=O)O)C(=O)N[C@@H](CCCNC(=N)N)C(=O)N[C@H](CCCNC(=N)N)C(=O)N[C@@H](CCCNC(=N)N)C(=O)N[C@@H](CCCCN)C(=O)O)[C@@H](C)O)C(C)C` is reported as 70 µM (A549 SMAC knockout; cell death; 24 h).
With `CSc1ccc2c(c1)c(CCN)c(C)n2Cc1ccccc1Cl` the IC50 was 7 µM (BV-2; cell count, high-content imaging; geometric mean).
